Experimental data pooled from the literature.
Every numbered part comes from another study and shows a few of its results, in no order.
Chain of UniProt Q52WX2 (whole entry, looked up): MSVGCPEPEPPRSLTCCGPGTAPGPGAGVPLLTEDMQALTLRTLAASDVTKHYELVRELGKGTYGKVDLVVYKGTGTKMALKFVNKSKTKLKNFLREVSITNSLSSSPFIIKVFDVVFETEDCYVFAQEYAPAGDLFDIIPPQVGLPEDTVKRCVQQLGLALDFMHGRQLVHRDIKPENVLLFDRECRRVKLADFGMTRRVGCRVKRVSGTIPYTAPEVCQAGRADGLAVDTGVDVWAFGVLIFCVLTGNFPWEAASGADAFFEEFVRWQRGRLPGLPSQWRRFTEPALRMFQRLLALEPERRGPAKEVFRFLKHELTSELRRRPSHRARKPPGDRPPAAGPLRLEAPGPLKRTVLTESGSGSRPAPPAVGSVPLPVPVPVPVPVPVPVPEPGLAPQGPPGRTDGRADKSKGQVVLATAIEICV
Chain of UniProt P00519 (whole entry, unmodified, looked up): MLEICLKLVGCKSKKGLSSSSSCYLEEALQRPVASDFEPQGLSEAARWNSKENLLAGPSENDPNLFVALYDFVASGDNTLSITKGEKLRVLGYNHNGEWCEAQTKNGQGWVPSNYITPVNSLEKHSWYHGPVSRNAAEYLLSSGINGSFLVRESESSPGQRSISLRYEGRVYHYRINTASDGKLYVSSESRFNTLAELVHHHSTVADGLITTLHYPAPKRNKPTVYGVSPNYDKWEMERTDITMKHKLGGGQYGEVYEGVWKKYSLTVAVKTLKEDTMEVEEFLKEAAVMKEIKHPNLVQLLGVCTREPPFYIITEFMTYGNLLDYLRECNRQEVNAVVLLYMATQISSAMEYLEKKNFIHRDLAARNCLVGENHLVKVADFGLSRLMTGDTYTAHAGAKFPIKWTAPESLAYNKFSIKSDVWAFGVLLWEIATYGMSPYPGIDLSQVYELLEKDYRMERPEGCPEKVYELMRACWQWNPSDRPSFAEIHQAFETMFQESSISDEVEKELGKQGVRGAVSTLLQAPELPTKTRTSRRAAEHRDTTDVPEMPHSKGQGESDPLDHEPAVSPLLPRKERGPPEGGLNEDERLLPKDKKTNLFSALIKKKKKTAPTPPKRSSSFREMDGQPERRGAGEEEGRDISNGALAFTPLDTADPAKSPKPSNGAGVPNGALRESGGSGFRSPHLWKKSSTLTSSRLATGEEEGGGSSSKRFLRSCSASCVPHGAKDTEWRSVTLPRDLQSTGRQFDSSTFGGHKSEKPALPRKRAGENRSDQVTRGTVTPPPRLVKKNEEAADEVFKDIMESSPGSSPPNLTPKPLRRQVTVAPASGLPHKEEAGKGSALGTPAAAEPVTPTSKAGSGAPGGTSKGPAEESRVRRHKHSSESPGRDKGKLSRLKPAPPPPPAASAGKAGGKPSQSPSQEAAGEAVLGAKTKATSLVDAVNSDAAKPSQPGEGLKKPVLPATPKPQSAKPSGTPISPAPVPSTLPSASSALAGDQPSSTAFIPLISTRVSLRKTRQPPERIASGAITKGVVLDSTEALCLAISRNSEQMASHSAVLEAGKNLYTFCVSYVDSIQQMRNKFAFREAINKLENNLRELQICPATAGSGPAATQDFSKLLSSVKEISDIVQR
Chain of UniProt Q9Y6R4 (whole entry, looked up): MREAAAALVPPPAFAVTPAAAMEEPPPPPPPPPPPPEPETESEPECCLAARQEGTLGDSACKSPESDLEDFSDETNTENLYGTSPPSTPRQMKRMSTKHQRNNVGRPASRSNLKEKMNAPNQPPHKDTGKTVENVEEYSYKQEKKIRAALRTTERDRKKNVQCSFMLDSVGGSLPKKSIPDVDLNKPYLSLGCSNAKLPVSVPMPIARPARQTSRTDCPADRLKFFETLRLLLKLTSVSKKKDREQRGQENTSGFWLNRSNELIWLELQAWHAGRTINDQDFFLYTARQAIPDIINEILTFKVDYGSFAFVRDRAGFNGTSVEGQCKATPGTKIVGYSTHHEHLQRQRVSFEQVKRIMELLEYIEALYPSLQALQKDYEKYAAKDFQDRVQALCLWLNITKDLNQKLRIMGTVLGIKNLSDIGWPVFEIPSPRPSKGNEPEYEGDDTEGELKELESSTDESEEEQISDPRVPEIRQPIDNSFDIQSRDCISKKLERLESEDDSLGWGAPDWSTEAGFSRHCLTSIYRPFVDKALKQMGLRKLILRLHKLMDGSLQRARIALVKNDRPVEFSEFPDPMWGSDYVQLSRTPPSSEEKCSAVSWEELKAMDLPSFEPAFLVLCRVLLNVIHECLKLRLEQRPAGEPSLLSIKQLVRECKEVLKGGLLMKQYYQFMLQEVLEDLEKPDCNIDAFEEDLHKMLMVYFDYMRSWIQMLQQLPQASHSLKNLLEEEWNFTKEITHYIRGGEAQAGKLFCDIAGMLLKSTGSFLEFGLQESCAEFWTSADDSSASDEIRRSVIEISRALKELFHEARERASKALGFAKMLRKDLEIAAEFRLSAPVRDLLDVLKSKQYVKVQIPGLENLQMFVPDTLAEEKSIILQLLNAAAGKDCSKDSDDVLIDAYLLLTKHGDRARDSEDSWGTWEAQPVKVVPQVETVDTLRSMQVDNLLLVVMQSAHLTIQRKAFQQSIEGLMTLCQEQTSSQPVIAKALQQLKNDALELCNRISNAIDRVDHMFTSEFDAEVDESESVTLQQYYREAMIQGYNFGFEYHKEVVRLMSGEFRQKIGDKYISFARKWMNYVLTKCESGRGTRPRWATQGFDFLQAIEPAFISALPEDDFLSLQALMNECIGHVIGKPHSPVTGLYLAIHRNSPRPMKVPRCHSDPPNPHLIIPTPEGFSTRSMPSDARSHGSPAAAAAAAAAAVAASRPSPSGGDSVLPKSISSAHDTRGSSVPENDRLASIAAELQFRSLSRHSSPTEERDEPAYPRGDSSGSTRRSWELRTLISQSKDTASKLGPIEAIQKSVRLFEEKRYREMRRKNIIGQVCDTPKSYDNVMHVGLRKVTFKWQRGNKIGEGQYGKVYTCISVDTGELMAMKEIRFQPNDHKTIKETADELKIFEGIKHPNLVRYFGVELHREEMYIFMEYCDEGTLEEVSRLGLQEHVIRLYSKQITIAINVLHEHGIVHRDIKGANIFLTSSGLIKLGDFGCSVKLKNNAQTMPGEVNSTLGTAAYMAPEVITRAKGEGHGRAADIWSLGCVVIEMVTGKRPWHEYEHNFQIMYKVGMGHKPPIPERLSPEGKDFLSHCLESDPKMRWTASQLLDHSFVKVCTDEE
Chain of UniProt Q00537 (whole entry, looked up): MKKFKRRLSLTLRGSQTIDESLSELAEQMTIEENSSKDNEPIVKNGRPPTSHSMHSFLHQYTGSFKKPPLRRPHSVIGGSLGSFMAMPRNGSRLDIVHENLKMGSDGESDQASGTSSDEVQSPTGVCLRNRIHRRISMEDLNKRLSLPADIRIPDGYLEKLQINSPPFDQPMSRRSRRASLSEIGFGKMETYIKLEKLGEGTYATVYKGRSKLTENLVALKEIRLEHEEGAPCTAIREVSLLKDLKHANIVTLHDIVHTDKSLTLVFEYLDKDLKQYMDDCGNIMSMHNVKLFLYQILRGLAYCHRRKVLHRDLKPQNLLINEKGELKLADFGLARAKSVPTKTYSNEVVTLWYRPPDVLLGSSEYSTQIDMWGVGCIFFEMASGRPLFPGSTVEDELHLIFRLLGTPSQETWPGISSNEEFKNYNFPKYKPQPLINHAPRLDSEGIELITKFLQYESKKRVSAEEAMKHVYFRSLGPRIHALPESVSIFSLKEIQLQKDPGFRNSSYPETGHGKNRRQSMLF
Chain of UniProt P29322 (whole entry, looked up): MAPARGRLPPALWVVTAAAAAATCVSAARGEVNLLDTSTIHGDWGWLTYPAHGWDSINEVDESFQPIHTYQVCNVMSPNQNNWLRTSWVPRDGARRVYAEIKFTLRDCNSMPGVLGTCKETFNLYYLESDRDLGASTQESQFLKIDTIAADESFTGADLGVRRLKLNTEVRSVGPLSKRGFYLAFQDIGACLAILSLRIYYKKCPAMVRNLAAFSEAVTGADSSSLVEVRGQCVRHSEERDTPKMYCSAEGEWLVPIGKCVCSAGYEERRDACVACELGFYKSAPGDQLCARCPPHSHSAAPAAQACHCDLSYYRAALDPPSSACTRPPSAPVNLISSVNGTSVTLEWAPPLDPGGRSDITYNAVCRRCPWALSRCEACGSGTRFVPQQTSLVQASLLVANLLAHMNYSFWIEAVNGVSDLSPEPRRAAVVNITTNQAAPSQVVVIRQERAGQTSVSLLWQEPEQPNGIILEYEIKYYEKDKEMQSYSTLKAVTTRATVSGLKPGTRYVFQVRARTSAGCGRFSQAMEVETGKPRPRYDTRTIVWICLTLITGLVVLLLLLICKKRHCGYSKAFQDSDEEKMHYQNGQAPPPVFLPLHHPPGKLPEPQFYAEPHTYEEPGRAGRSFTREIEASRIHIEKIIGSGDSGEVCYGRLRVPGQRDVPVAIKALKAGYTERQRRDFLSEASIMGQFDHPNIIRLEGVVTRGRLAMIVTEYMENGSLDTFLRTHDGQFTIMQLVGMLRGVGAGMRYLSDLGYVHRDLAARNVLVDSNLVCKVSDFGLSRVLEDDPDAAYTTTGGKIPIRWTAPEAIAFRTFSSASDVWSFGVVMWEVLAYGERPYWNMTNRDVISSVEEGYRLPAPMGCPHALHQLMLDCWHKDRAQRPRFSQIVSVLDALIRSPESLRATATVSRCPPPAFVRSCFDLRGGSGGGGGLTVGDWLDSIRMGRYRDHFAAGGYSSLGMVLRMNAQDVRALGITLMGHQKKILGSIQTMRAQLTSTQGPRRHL
Chain of UniProt Q8N752 (whole entry, looked up): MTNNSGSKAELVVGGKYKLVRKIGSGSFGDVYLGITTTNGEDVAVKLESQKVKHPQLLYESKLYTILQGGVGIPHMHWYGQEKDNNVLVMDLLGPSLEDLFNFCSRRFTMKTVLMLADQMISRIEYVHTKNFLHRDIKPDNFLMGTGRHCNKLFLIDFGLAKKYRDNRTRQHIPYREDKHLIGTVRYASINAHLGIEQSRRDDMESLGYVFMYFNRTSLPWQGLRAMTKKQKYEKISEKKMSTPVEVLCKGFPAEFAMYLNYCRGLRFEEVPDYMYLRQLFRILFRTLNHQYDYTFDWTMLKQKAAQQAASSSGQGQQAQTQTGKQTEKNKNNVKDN

Series 1
Species: human
Sample: microsomes or S9
Concentration: 2 µM
Time: 0.5 h
SMILES | remaining compound [%]
O=C(NC1CCCc2ccccc21)c1ccc(CS(=O)(=O)c2ccc(Br)cc2)o1 (stereo not drawn) | 26.8
O=C(COc1ccc2c3ccccc3n(C(=O)c3cccc4ccccc34)c2c1)N1CCCC1 | 2.3
CCN1CCCC1CNC(=O)c1n[nH]c2c1CCC2 (stereo not drawn) | 86.1
O=S(=O)(c1cn[nH]c1)N1CCCC(c2cnccn2)C1 (stereo not drawn) | 59.5
CCOC(=O)c1c(=O)n2cccnc2c2c(C)cccc12 | 1.96
CCN(CC)S(=O)(=O)c1ccc2nc(NCc3cc(F)cc(F)c3)cnc2c1 | 21.4
Fc1ccc(-c2cc3nc4c(c(NCC5CCCO5)n3n2)CCCC4)cc1 (stereo not drawn) | 9.12
COCC(=O)NC(c1ccccc1)c1ccccc1 | 97.2
CN1CCC(N(C)C(=O)c2cc3cc(Br)cc(Br)c3o2)CC1 | 69.5
CCOC1CC(NC(=O)c2nnn(C3CCNCC3)c2C)C12CCC2 (stereo not drawn) | 0.643

Series 2
Structure (SMILES): Nc1cnc(N2CCc3cc(S(=O)(=O)Nc4c(F)cc(Cl)cc4F)cc(N4CCCC4=O)c32)nc1
Effect on: cell-free assay
Method: competition with immobilised ligand
Concentration: 1 µM
target | remaining binding
BMPR1B (Homo sapiens, UniProt O00238) | 100%
MAP2K4 (Homo sapiens, UniProt P45985) | 100%
NEK5 (Homo sapiens, UniProt Q6P3R8) | 100%
Tyrosine-protein kinase ABL1, non-phosphorylated (ABL1, Homo sapiens, UniProt P00519, F317L) | 99%
MET (Homo sapiens, UniProt P08581, M1250T) | 100%
Ribosomal protein S6 kinase alpha-6, C-terminal kinase domain (RPS6KA6, Homo sapiens, UniProt Q9UK32) | 100%
MYLK2 (Homo sapiens, UniProt Q9H1R3) | 87%
EPHA8 (Homo sapiens, UniProt P29322) | 100%
SBK1 (Homo sapiens, UniProt Q52WX2) | 83%
MAP3K6 (Homo sapiens, UniProt O95382) | 75%
MAP3K4 (Homo sapiens, UniProt Q9Y6R4) | 85%
Receptor-type tyrosine-protein kinase FLT3, autoinhibited (FLT3, Homo sapiens, UniProt P36888) | 91%
CSNK1A1L (Homo sapiens, UniProt Q8N752) | 100%
PIK3CA (Homo sapiens, UniProt P42336, E542K) | 72%
SRC (Homo sapiens, UniProt P12931) | 99%
CDK17 (Homo sapiens, UniProt Q00537) | 100%
TTK (Homo sapiens, UniProt P33981) | 90%
EGFR (Homo sapiens, UniProt P00533, T790M) | 88%
LIM domain kinase 2 (LIMK2, Homo sapiens, UniProt P53671) | 100%

Series 3
Cell line: A-375
Concentration: 100 µM
Time: 36 h
SMILES | viability [%]
CCC(=O)O[C@]1(C(=O)CCl)[C@@H](C)C[C@H]2[C@@H]3CCC4=CC(=O)C=C[C@]4(C)[C@@]3(F)[C@@H](O)C[C@@]21C | 73.9
N=C(N)N/N=C/c1c(Cl)cccc1Cl | 38.4
Cc1cccc(C)c1OCC(C)N (stereo not drawn) | 90.8
Nc1nc2c(c(=O)[nH]1)N(C=O)C(CNc1ccc(C(=O)N[C@@H](CCC(=O)O)C(=O)O)cc1)CN2 (stereo partly drawn) | 104
O=C1OC(CN2CCOCC2)CN1/N=C/c1ccc([N+](=O)[O-])o1 (stereo not drawn) | 36.2
COc1ccc(-c2ccc3cc(C(=O)O)ccc3c2)cc1[C@]12C[C@H]3C[C@H](C[C@H](C3)C1)C2 | 0.896
O=C(O[C@H]1C[N+]2(CCCOc3ccccc3)CCC1CC2)C(O)(c1cccs1)c1cccs1 | 98.7
O=C(O)c1cccc(-c2noc(-c3ccccc3F)n2)c1 | 80.1
Cc1cc2nc3c(=O)[nH]c(=O)nc-3n(C[C@H](O)[C@H](O)[C@H](O)CO)c2cc1C | 102
C[C@H]1C[C@@H]2[C@H]([C@@H](O)C[C@@]3(C)[C@H]2CC[C@]3(O)C(=O)CO)[C@@]2(C)C=CC(=O)C=C12 | 112
C=C1c2cccc(O)c2C(=O)C2=C(O)[C@]3(O)C(=O)C(C(N)=O)=C(O)[C@@H](N(C)C)[C@@H]3[C@@H](O)[C@H]12 | 129
Oc1ccc(/C=C/c2cc(O)cc(O)c2)cc1 | 35.8

Further values, each from its own experiment
Structure (SMILES) | sample | measurement | result
CCOC(=O)[C@@H]1CSCC(=O)N[C@@H](CC)C(=O)N(C)[C@@H](C)C(=O)N[C@H](CC(C)C)C(=O)N2CCC[C@H]2C(=O)N(CC)CC(=O)N[C@H](CC(C)C)C(=O)N(C)[C@@H](C)C(=O)N[C@@H](CC(C)C)C(=O)N1C | hydrocarbon/water | logD | 1.68
